Experimental data pooled from the literature.
Protocols differ between the studies behind these lines. ± gives the spread as reported.

N=C(N)NCCC[C@@H]1NC(=O)[C@H](CCCCNC(=O)CNC(=O)CNC(=O)CNC(=O)CC[C@H](NC(=O)CCOCCOCCOCCOCCNC(=O)CC[C@H](NC(=O)CN2CCN(CC(=O)O)CCN(CC(=O)O)CCN(CC(=O)O)CC2)C(=O)NCCOCCOCCOCCOCCC(=O)N[C@@H](CCC(=O)NCC(=O)NCC(=O)NCC(=O)NCCCC[C@@H]2NC(=O)[C@@H](Cc3ccccc3)NC(=O)[C@H](CC(=O)O)NC(=O)CNC(=O)[C@H](CCCNC(=N)N)NC2=O)C(=O)NCC(=O)NCC(=O)NCC(=O)NCCCC[C@@H]2NC(=O)[C@@H](Cc3ccccc3)NC(=O)[C@H](CC(=O)O)NC(=O)CNC(=O)[C@H](CCCNC(=N)N)NC2=O)C(=O)NCC(=O)NCC(=O)NCC(=O)NCCCC[C@@H]2NC(=O)[C@@H](Cc3ccccc3)NC(=O)[C@H](CC(=O)O)NC(=O)CNC(=O)[C@H](CCCNC(=N)N)NC2=O)NC(=O)[C@@H](Cc2ccccc2)NC(=O)[C@H](CC(=O)O)NC(=O)CNC1=O [indium-111 labelled] — tumour to tissue ratio (athymic nude mice, female, U-87 MG glioma xenograft, tumour and kidney; intravenous, 0.5 h; reference: tumour over kidney): 1.07 ± 0.27
CSCC[C@H](NC(=O)[C@H](CC(C)C)NC(=O)[C@H](Cc1c[nH]cn1)NC(=O)CNC(=O)[C@@H](NC(=O)[C@H](C)NC(=O)[C@H](Cc1c[nH]c2ccccc12)NC(=O)[C@H](CCC(N)=O)NC(=O)CCCCCNC(=O)CN1CCN(CC(=O)O)CCN(CC(=O)O)CC1)C(C)C)C(N)=O [gallium-68 labelled] — remaining parent (radio-HPLC; fetal bovine serum; 2 h, 37 °C): 89.2%
N=C(N)NCCC[C@H](NC(=O)[C@H](CCCCN)NC(=O)[C@H](CCC(N)=O)NC(=O)CCOCCOCCOCCNC(=O)CN1CCN(CC(=O)O)CCN(CC(=O)O)CCN(CC(=O)O)CC1)C(=O)N[C@@H](CCCCN)C(=O)N[C@@H](CCCNC(=N)N)C(=O)N[C@@H](CCCCN)C(=O)N[C@@H](CCCCN)C(=O)N[C@@H](CO)C(=O)N[C@@H](CCCNC(=N)N)C(=O)N[C@@H](Cc1ccc(O)cc1)C(=O)N[C@@H](CCCCN)C(=O)N[C@@H](CO)C(=O)O [copper-64 labelled] — time to peak tumour radioactivity (PET; mice, B16-F10 melanoma; intravenous, dose not given): 10 min
CCCC[C@H](NC(=O)CNC(=O)[C@H](CO)NC(=O)CNC(=O)c1ccc(NN)nc1)C(=O)N[C@H]1CC(=O)NCCCC[C@@H](C(N)=O)NC(=O)[C@H](Cc2c[nH]c3ccccc23)NC(=O)[C@H](CCCNC(=N)N)NC(=O)[C@@H](Cc2ccccc2)NC(=O)[C@H](Cc2c[nH]cn2)NC1=O [technetium-99m labelled] — uptake (C57 mouse, B16/F1 melanoma, spleen; intravenous, 2 h): 0.08 ± 0.02 %ID/g
CCCC[C@H](NC(=O)CNC(=O)CNC(=O)c1ccc(NN)nc1)C(=O)N[C@H]1CC(=O)NCCCC[C@@H](C(N)=O)NC(=O)[C@H](Cc2c[nH]c3ccccc23)NC(=O)[C@H](CCCNC(=N)N)NC(=O)[C@@H](Cc2ccccc2)NC(=O)[C@H](Cc2c[nH]cn2)NC1=O [technetium-99m labelled] — tissue uptake (C57 mouse, B16/F1 melanoma-bearing, blood; intravenous, 0.5 h): 2.62 ± 0.09 %ID/g
N=C(N)NCCC[C@@H]1NC(=O)[C@H](CCCCNC(=O)CC[C@H](NC(=O)CCOCCOCCOCCOCCNC(=O)CC[C@H](NC(=O)CN2CCN(CC(=O)O)CCN(CC(=O)O)CCN(CC(=O)O)CC2)C(=O)NCCOCCOCCOCCOCCC(=O)N[C@@H](CCC(=O)NCCCC[C@@H]2NC(=O)[C@@H](Cc3ccccc3)NC(=O)[C@H](CC(=O)O)NC(=O)CNC(=O)[C@H](CCCNC(=N)N)NC2=O)C(=O)NCCCC[C@@H]2NC(=O)[C@@H](Cc3ccccc3)NC(=O)[C@H](CC(=O)O)NC(=O)CNC(=O)[C@H](CCCNC(=N)N)NC2=O)C(=O)NCCCC[C@@H]2NC(=O)[C@@H](Cc3ccccc3)NC(=O)[C@H](CC(=O)O)NC(=O)CNC(=O)[C@H](CCCNC(=N)N)NC2=O)NC(=O)[C@@H](Cc2ccccc2)NC(=O)[C@H](CC(=O)O)NC(=O)CNC1=O [indium-111 labelled] — tumour to tissue ratio (athymic nude mice, female, U-87 MG glioma xenograft, tumour and blood; intravenous, 0.5 h; reference: tumour over blood): 11.6 ± 5.36
C[C@@H](O)[C@H](NC(=O)[C@@H]1CSSC[C@H](NC(=O)[C@@H](Cc2ccccc2)NC(=O)CN2CCCN3CCN(CCCN(CP(=O)(O)O)CC3)CC2)C(=O)N[C@@H](Cc2ccc(O)cc2)C(=O)N[C@H](Cc2c[nH]c3ccccc23)C(=O)N[C@@H](CCCCN)C(=O)N[C@@H]([C@@H](C)O)C(=O)N1)C(=O)O [copper-64 labelled] — activity cleared from liver (male Lewis rat, AR-42J tumour-bearing; dose not given, 1 to 24 h): 75%
CC(C)C[C@@H]1NC(=O)[C@H](C(C)C)NC(=O)[C@H](CO)NC(=O)CNC(=O)CNC(=O)[C@H](CCCNC(=N)N)NC(=O)[C@@H]2CCCN2C(=O)[C@@H](NC(=O)CC[C@H](NC(=O)c2ccc(N(C)Cc3cnc4nc(N)nc(N)c4n3)cc2)C(=O)O)C(C)(C)SSC[C@@H](C(=O)O)NC(=O)CNC(=O)[C@H]([C@@H](C)O)NC(=O)[C@H](C(C)C)NC1=O — half-life (chemical stability; carbonate buffer; 100 µM, pH 10.0, 70 °C): 30.1 h
N=C(N)NCCC[C@@H]1NC(=O)[C@H](CCCCNC(=O)CCOCCOCCOCCOCCNC(=O)CC[C@H](NC(=O)CCOCCOCCOCCOCCNC(=O)CC[C@H](NC(=O)CN2CCN(CC(=O)O)CCN(CC(=O)O)CCN(CC(=O)O)CC2)C(=O)NCCOCCOCCOCCOCCC(=O)N[C@@H](CCC(=O)NCCOCCOCCOCCOCCC(=O)NCCCC[C@@H]2NC(=O)[C@@H](Cc3ccccc3)NC(=O)[C@H](CC(=O)O)NC(=O)CNC(=O)[C@H](CCCNC(=N)N)NC2=O)C(=O)NCCOCCOCCOCCOCCC(=O)NCCCC[C@@H]2NC(=O)[C@@H](Cc3ccccc3)NC(=O)[C@H](CC(=O)O)NC(=O)CNC(=O)[C@H](CCCNC(=N)N)NC2=O)C(=O)NCCOCCOCCOCCOCCC(=O)NCCCC[C@@H]2NC(=O)[C@@H](Cc3ccccc3)NC(=O)[C@H](CC(=O)O)NC(=O)CNC(=O)[C@H](CCCNC(=N)N)NC2=O)NC(=O)[C@@H](Cc2ccccc2)NC(=O)[C@H](CC(=O)O)NC(=O)CNC1=O [indium-111 labelled] — log P (octanol/water): -3.68 ± 0.03
CC(C)C[C@H](NC(=O)[C@@H]1CCCN1C(=O)[C@H](CCCCN)NC(=O)[C@@H](N)CO)C(=O)N1CCC[C@H]1C(=O)N[C@@H](CCC(=O)O)C(=O)N[C@H](C(=O)N[C@H](C(=O)N[C@@H](CC(=O)O)C(=O)N[C@@H](CCC(=O)O)C(=O)N[C@@H](Cc1ccc(O)cc1)C(=O)N[C@@H](Cc1cn(CCOCCOCCOCCNC(=O)CCc2ccc(O)c(CN(CCN(CC(=O)O)Cc3cc(CCC(=O)NCCCC[C@H](NC(=O)N[C@@H](CCC(=O)O)C(=O)O)C(=O)O)ccc3O)CC(=O)O)c2)nn1)C(=O)O)[C@@H](C)O)C(C)C [gallium-68 labelled] — standardized uptake value (NMRI nu/nu mice, LNCaP tumour, testes; 10 MBq, high molar activity): 0.18 g/g
CCCC[C@H](NC(=O)CCCCCCCNC(=O)c1ccc(NN)nc1)C(=O)N[C@H]1CC(=O)NCCCC[C@@H](C(N)=O)NC(=O)[C@H](Cc2c[nH]c3ccccc23)NC(=O)[C@H](CCCNC(=N)N)NC(=O)[C@@H](Cc2ccccc2)NC(=O)[C@H](Cc2c[nH]cn2)NC1=O [technetium-99m labelled] — uptake (C57 mouse, B16/F1 melanoma, brain; intravenous, 0.5 h): 0.17 ± 0.07 %ID/g
Cc1ncsc1-c1ccc(CNC(=O)[C@@H]2C[C@@H](OC(=O)OCCSSCCn3cc(CCCC(=O)N[C@@H](Cc4ccc(O)cc4)C(=O)N[C@@H](CCCNC(=N)N)C(=O)N[C@@H](CCCNC(=N)N)C(=O)N[C@@H](CCCNC(=N)N)C(=O)N[C@@H](CCCNC(=N)N)C(=O)N[C@@H](CCCNC(=N)N)C(=O)N[C@@H](CCCNC(=N)N)C(=O)N[C@@H](CCCNC(=N)N)C(=O)N[C@@H](CCCNC(=N)N)C(=O)N[C@@H](CCCNC(=N)N)C(N)=O)nn3)CN2C(=O)[C@@H](NC(=O)COCCOCCOCCNC(=O)C[C@@H]2N=C(c3ccc(Cl)cc3)c3c(sc(C)c3C)-n3c(C)nnc32)C(C)(C)C)cc1 — remaining intact compound (UHPLC; PBS; 100 nM, 24 h, 37 °C, added: 5 mM glutathione; reference: total peak area): 0%
N=C(N)NCCC[C@@H]1NC(=O)[C@H](CCCCNC(=O)CNC(=O)CNC(=O)CNC(=O)CC[C@H](NC(=O)c2ccc(NN=Cc3ccccc3S(=O)(=O)O)nc2)C(=O)NCC(=O)NCC(=O)NCC(=O)NCCCC[C@@H]2NC(=O)[C@@H](Cc3ccccc3)NC(=O)[C@H](CC(=O)O)NC(=O)CNC(=O)[C@H](CCCNC(=N)N)NC2=O)NC(=O)[C@@H](Cc2ccccc2)NC(=O)[C@H](CC(=O)O)NC(=O)CNC1=O [technetium-99m labelled] — tissue uptake (athymic nu/nu mouse, female, MDA-MB-435 xenograft, blood; intravenous, 120 min): 0.3 ± 0.06 %ID/g
N=C(N)NCCC[C@@H]1NC(=O)[C@H](CCCCNC(=O)CC[C@H](NC(=O)CCOCCOCCOCCOCCNC(=O)CN2CCN(CC(=O)O)CCN(CC(=O)O)CCN(CC(=O)O)CC2)C(=O)NCCCC[C@@H]2NC(=O)[C@@H](Cc3ccccc3)NC(=O)[C@H](CC(=O)O)NC(=O)CNC(=O)[C@H](CCCNC(=N)N)NC2=O)NC(=O)[C@@H](Cc2ccccc2)NC(=O)[C@H](CC(=O)O)NC(=O)CNC1=O [indium-111 labelled] — tumour to tissue ratio (athymic nude mice, female, U-87 MG glioma xenograft, tumour and kidney; intravenous, 1 h; reference: tumour over kidney): 1.11 ± 0.09
CSCC[C@H](NC(=O)[C@H](CC(C)C)NC(=O)[C@H](Cc1c[nH]cn1)NC(=O)CNC(=O)[C@@H](NC(=O)[C@H](C)NC(=O)[C@H](Cc1c[nH]c2ccccc12)NC(=O)[C@H](CCC(N)=O)NC(=O)CCCCCNC(=O)CNC(=O)CNC(=O)CNC(=O)CSC(C)=O)C(C)C)C(N)=O [technetium-99m labelled] — tissue uptake (healthy Swiss mouse, stomach, contents removed; intravenous, 18.5 MBq, 30 min): 0.49 ± 0.05 %ID/g
